Results gathered from unrelated publications.
Every numbered part comes from another study and shows a few of its results, in no order. Changes are numbered by the printed parent chain.

Block 1 — target: CCNB3, cyclin fold, Cln2 fusion (human); method: yeast growth competition, sequencing; medium: yeast; setting: weak parent motif; reference: not given; reading: higher = stronger binding
Starting sequence: DBF4 docking peptide (human); DDIVSKLVFDFVE; partner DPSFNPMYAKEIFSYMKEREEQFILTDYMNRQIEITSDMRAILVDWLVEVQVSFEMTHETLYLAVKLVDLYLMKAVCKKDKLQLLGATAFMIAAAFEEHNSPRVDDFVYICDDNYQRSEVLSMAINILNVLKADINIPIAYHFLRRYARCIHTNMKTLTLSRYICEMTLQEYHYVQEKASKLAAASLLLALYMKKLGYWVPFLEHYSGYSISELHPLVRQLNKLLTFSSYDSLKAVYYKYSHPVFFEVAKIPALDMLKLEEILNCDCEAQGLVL
For `DDIVSKLVFDFAE [V12A]`, “normalised enrichment score” read -0.0419.
`DAIVSKLVFDFVE [D2A]` — result for “normalised enrichment score”: 0.103.
`DDIASKLVFDFVE [V4A]`: “normalised enrichment score” -0.0019.
Under “normalised enrichment score”, `DDAVSKLVFDFVE [I3A]` is recorded as 0.333.
`DDIVSALVFDFVE [K6A]`: “normalised enrichment score” 0.141.
`DDIVSKAVFDFVE [L7A]` — result for “normalised enrichment score”: -0.129.

Block 2 — method: universal PBM; form: double-stranded DNA, one strand shown; medium: in vitro; tested at: not given; reading: higher = stronger binding
Target: Sal-like protein 4, full length isoform B (SALL4, Homo sapiens, UniProt Q9UJQ4-2, residues 1-616)
Setting: 8-mer, flanks averaged, mean of replicates
`CCAGTGGC` gave an E-score of -0.363.
The E-score of `ACTTAGCT` is reported as -0.121.
With `GCGAGGAA` the E-score was -0.0368.
For `CTTATACC`, the E-score was 0.136.
`ACGTGCCC` gave an E-score of -0.221.
`CACAAGAG` has an E-score of 0.0215.
`ACGAAGCT` has an E-score of -0.088.
`ACTCGTGG` gave an E-score of -0.0669.
`TTAGTCAA` gave an E-score of 0.102.
The E-score of `CTAGGGCC` is reported as -0.232.
`CATCTTAC` gave an E-score of 0.0372.
For `CAGCTGTA`, the E-score was -0.196.
The E-score of `GTCTTTGA` is reported as -0.0641.
The E-score of `ACGTTAAA` is reported as 0.253.
`CGTTGTAA` gave an E-score of 0.156.
For `AAGGCGGT`, the E-score was -0.119.
The E-score of `TCAAACCA` is reported as 0.017.
The E-score of `AATCTTCC` is reported as -0.0251.
For `AGCAGCGA`, the E-score was -0.0853.
The E-score of `GTAAGGAC` is reported as -0.13.
With `CTGATGGA` the E-score was -0.147.
For `AATTCCAT`, the E-score was 0.249.
`ATAACAGA` has an E-score of 0.309.
For `ACCTTCCT`, the E-score was -0.14.
`AGAAGGGG` gave an E-score of -0.214.

Block 3 — method: DHFR PCA, deep sequencing; medium: yeast; together with: (+)-ABA 17 µM; reference: wild-type fitted maximum; reading: higher = stronger binding
Target: ABI1, truncated, D143A, DHFR fusion (Arabidopsis thaliana)
Setting: methotrexate growth selection, single substitutions
Starting sequence: PYL1, truncated, DHFR fusion (Arabidopsis thaliana); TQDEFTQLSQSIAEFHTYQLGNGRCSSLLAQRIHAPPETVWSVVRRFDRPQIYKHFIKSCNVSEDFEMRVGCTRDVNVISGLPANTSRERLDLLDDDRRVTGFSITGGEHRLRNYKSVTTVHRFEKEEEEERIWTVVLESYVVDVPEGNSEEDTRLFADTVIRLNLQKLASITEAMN
Under “relative binding score”, `V62W` is recorded as 15.8%.
`E89Q`: “relative binding score” -12.8%.
`R90P`: “relative binding score” -3.97%.
Under “relative binding score”, `N22P` is recorded as 89.5%.
For `A84C`, “relative binding score” read 38.5%.
For `V76W`, “relative binding score” read -19%.
`V76C`: “relative binding score” 68.6%.
`K126A`: “relative binding score” 96.1%.
`V76G` — result for “relative binding score”: -3.72%.
`S11T` — result for “relative binding score”: 81.8%.

Block 4 — method: protein-binding microarray; form: double-stranded DNA, one strand shown; medium: in vitro; tested at: 250 nM; setting: 60-bp whole probe; together with: salmon DNA 0.4 mg/ml; reference: random background probes; reading: higher = stronger binding; shared flanks, not repeated: GCCTAGCAC … GTCTTGATTCGCTTGACGCTGCTG
Target: Interferon regulatory factor 5, full length, phosphomimetic (IRF5, Homo sapiens, UniProt Q13568-2, residues 1-514, K96S/S451D/S453D/S456D/S462D)
`TTAGGTTTCGGTACCGGTTAGTGCTAG` gave a log fluorescence of 9.96 z-score.
`TTAGGTTTCGACTTTCGGTAAGTGCTA` has a log fluorescence of 9.97 z-score.
The log fluorescence of `GACGATTTCGGGACTGGACACGTGCTA` is reported as 1.58 z-score.
`TCAATTTTGGTTTTCTCACTGTGCTAG` gave a log fluorescence of 2.47 z-score.
`AATAAAATGAATATTAGAAGGTGCTAG` has a log fluorescence of 0.599 z-score.
For `TTAGGTTTCGGCATCGGTTAGTGCTAG`, the log fluorescence was 7.75 z-score.
For `TTAAATATCAGTTTCGATTAGTGCTAG`, the log fluorescence was 10.2 z-score.
For `TTAGAACTGGGGACTGGATGAGTGCTA`, the log fluorescence was -0.327 z-score.
The log fluorescence of `GACGATCGCAGTATCGAGACGTGCTAG` is reported as 1.19 z-score.
For `GACGATCTCAGTCCCGAGACGTGCTAG`, the log fluorescence was -0.373 z-score.
The log fluorescence of `TCACAGAAGGGAAACAGGACTGTGCTA` is reported as 0.254 z-score.
`GAATGTGTCTTAAATAGGGCAGTGCTA` has a log fluorescence of 0.183 z-score.
The log fluorescence of `GACGATATCGGGTTCCGAGACGTGCTA` is reported as 1.44 z-score.
`TCATTTTTTTAATTGAGACTGTGCTAG` has a log fluorescence of 0.606 z-score.
For `GACGGTTTCGACACTCGGGACGTGCTA`, the log fluorescence was 4.9 z-score.

Single results of other studies
The fold induction of `PhoQ, residues 284 288 289 292 302 303 SACGEM` is reported as 6.96 (PhoP, residues 12 14 15 18 19 TTLRV (Escherichia coli, UniProt P23836); Sort-seq, measured: YFP reporter; E. coli; PhoQ-PhoP variant library, together with: 10 µM Mg2+; reference: high Mg2+ state, higher = stronger signaling).

Excerpt of the above (block 2):
For `AGCAGCGA`, the E-score was -0.0853.
The E-score of `GTAAGGAC` is reported as -0.13.
With `CTGATGGA` the E-score was -0.147.
For `AATTCCAT`, the E-score was 0.249.
`ATAACAGA` has an E-score of 0.309.
